Measurements from different studies.
A part holds a random share of what one study measured. Several values in a cell are separate wells, animals, samples, runs or records. pIC50, pKd: −log10 of the molar value.
Chain of UniProt Q16853 (whole entry, looked up): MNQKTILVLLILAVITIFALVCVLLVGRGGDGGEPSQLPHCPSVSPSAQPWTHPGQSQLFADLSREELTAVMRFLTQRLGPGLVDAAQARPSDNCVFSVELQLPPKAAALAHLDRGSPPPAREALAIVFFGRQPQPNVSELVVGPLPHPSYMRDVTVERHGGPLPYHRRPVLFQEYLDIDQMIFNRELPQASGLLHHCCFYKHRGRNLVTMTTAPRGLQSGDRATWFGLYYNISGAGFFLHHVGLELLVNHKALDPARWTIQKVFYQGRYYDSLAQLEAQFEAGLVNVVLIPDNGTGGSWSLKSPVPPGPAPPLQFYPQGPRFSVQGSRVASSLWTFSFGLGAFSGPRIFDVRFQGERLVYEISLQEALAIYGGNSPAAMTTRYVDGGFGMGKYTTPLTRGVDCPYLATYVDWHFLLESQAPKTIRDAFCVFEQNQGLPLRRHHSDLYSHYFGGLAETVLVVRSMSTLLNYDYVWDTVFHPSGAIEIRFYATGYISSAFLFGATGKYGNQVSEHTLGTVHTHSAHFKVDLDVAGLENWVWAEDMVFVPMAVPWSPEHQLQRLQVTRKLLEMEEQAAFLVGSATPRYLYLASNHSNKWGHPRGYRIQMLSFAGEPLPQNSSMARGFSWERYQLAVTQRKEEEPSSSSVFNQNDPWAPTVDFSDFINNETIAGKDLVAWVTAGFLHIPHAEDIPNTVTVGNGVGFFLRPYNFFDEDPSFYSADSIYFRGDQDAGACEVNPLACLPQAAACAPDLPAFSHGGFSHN
Chain of UniProt P11802 (whole entry, looked up): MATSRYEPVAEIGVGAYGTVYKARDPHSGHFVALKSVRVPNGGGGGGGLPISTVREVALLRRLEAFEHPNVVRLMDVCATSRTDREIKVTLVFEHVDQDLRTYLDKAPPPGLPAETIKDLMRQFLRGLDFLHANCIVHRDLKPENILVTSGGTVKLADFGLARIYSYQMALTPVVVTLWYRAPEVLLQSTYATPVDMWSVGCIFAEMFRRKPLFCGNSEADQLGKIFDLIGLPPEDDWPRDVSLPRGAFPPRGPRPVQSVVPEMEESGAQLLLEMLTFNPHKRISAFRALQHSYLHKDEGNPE
Chain of UniProt Q9Y243 (whole entry, looked up): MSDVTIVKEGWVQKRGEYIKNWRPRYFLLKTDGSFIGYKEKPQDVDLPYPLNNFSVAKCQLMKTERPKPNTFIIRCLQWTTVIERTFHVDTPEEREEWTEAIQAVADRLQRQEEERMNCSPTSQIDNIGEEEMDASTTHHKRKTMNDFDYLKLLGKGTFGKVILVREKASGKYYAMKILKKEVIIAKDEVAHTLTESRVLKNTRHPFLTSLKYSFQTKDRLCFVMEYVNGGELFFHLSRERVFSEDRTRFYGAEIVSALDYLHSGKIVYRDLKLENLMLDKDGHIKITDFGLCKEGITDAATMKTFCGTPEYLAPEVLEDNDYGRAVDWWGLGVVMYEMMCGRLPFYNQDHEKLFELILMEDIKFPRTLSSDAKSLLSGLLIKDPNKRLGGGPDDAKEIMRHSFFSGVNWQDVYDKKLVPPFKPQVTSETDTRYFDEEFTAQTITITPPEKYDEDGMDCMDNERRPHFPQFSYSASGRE
Chain of UniProt Q99808 (whole entry, looked up): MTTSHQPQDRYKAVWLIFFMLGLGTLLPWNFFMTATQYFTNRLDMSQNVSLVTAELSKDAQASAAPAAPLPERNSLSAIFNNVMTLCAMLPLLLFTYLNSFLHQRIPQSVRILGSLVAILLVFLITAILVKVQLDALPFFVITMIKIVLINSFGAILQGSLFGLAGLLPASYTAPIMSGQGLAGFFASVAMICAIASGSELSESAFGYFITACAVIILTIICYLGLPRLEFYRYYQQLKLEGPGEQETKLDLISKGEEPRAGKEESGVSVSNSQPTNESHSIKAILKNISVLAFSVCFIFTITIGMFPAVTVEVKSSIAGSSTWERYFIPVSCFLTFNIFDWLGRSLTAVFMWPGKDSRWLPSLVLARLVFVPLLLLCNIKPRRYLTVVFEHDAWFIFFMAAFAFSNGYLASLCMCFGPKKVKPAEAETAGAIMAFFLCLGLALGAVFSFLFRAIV

Series 1
SMILES: O=C(O)C1(O)Oc2cc(F)ccc2N(Cc2ccccc2)C1=O (centres unmarked)
tested on | test system | setting | root length
Arabidopsis thaliana | Col-0, seedlings | 50 µg/mL, with: BCAA | 1.01 cm
Arabidopsis thaliana | Col-0 | 50 µg/mL, seed germination | 0.01 cm
– | Arabidopsis thaliana Col-0 seedlings | 50 µg/mL, with: branched-chain amino acids | 1.04 cm and 0.98 cm and 1.03 cm and 1 cm and 1.02 cm and 0.99 cm and 1.01 cm
Arabidopsis thaliana | Col-0 | 25 µg/mL, seed germination | 0.139 cm
Arabidopsis thaliana | Col-0, seedlings | 50 µg/mL, 1/2 MS medium | 0.01 cm

Series 2
Compound: CCN1/C(=C/C=C2\CCCC(/C=C/C3=[N+](CC)c4ccccc4C3(C)C)=C2NCCCCCCCCN2CCC(Nc3nc4ccccc4n3Cc3ccc(F)cc3)CC2)C(C)(C)c2ccccc21
Cell line: U-87 MG
Tested at: concentration not given
Baseline: DMSO
refers to | log2 fold change
PARP9 mRNA | -1.69
ARHGAP22 mRNA | -1.58
STX5 mRNA | 0.991
TNFRSF11B mRNA | -3.25
RB1CC1 mRNA | 1.02
SEC24A mRNA | 1.01
ARHGAP42 mRNA | -0.99
ARL8A mRNA | 1.23
UACA mRNA | -1.09
CCSER2 mRNA | 1.13
C1GALT1C1 mRNA | -1.27
SNRK mRNA | 0.915
SP7 mRNA | -4.89
RACGAP1 mRNA | -1.62
SLC2A3 mRNA | 1.52
CBX2 mRNA | -1.42

Series 3
SMILES: CC[C@@]1(c2cccc(C(F)(F)F)c2)C2=C(Nc3n[nH]cc31)[C@H](F)C(C)(C)CC2=O (single isomer, unassigned)
Tested at: 1 µM
target | read-out | method | baseline | remaining binding [%]
PNCK (Homo sapiens, UniProt Q6P2M8) | kinase binding | KINOMEscan | DMSO control | 97
IRAK1 (Homo sapiens, UniProt P51617) | binding | competition with immobilised ligand | – | 95
Tyrosine-protein kinase ABL1, non-phosphorylated (ABL1, Homo sapiens, UniProt P00519, F317I) | kinase binding | KINOMEscan | DMSO control | 100
TXK (Homo sapiens, UniProt P42681) | kinase binding | KINOMEscan | DMSO control | 100
EPHB4 (Homo sapiens, UniProt P54760) | binding | competition with immobilised ligand | – | 100
EGFR (Homo sapiens, UniProt P00533, T790M) | binding | competition with immobilised ligand | – | 100
DYRK2 (Homo sapiens, UniProt Q92630) | kinase binding | KINOMEscan | DMSO control | 100
AKT3 (Homo sapiens, UniProt Q9Y243) | kinase binding | KINOMEscan | DMSO control | 100
Ribosomal protein S6 kinase alpha-2, N-terminal kinase domain (RPS6KA2, Homo sapiens, UniProt Q15349) | kinase binding | KINOMEscan | DMSO control | 100
ERBB4 (Homo sapiens, UniProt Q15303) | kinase binding | KINOMEscan | DMSO control | 100
STK32C (Homo sapiens, UniProt Q86UX6) | binding | competition with immobilised ligand | – | 73
ALK (Homo sapiens, UniProt Q9UM73, C1156Y) | binding | competition with immobilised ligand | – | 68
KIT (Homo sapiens, UniProt P10721, T670I/V559D) | binding | competition with immobilised ligand | – | 78
Ribosomal protein S6 kinase alpha-6, N-terminal kinase domain (RPS6KA6, Homo sapiens, UniProt Q9UK32) | kinase binding | KINOMEscan | DMSO control | 100
MET (Homo sapiens, UniProt P08581, Y1235D) | binding | competition with immobilised ligand | – | 100
NEK3 (Homo sapiens, UniProt P51956) | binding | competition with immobilised ligand | – | 75
MAST1 (Homo sapiens, UniProt Q9Y2H9) | kinase binding | KINOMEscan | DMSO control | 100

Series 4
Compound: Cc1ncsc1-c1ccc(C(CO)NC(=O)C2CC(O)CN2C(=O)C(C(C)C)n2cc(-c3ccc(COc4c(-c5c(C)c(F)cc6[nH]ncc56)c(C5CC5)cc5c(N6CC7CC6CN7)nc(OC6CCOCC6)nc45)cc3)nn2)cc1 (centres unmarked)
cell line | host | route | dose | time | tumour volume
– | mouse, lung LXFA sample A PDX | – | 30 mg/kg twice weekly | day 22 | 51.8 mm3 and 49.7 mm3 and 63.6 mm3 and 13.8 mm3 and 63 mm3 and 74 mm3 and 118 mm3 and 125 mm3
ASPC1 xenograft | mouse | – | 30 mg/kg once weekly | day 7 | 136 mm3 and 203 mm3 and 180 mm3 and 141 mm3 and 223 mm3
ASPC1 xenograft | mouse | – | 30 mg/kg twice weekly | day 14 | 162 mm3 and 96.7 mm3 and 144 mm3 and 112 mm3
– | mouse, HT-29 xenograft | sc | 30 mg/kg once daily | day 15 | 756 mm3 and 1030 mm3 and 979 mm3 and 806 mm3 and 618 mm3
– | mouse, ASPC1 xenograft | – | 30 mg/kg twice weekly | day 0 | 284 mm3 and 178 mm3 and 189 mm3 and 169 mm3 and 212 mm3
– | mouse, HT-29 xenograft | sc | 30 mg/kg once daily | day 8 | 463 mm3 and 518 mm3 and 444 mm3 and 586 mm3 and 468 mm3
– | mouse, A-375 xenograft | sc | 30 mg/kg once daily | day 10 | 489 mm3 and 338 mm3 and 447 mm3 and 596 mm3 and 671 mm3
GP5d xenograft | mouse | – | 30 mg/kg twice weekly | day 7 | 153 mm3 and 230 mm3 and 102 mm3 and 146 mm3
– | mouse, PK-59 xenograft | subcutaneous | 30 mg/kg once daily | day 22 | 23.8 mm3 and 28.2 mm3 and 24.6 mm3 and 25.4 mm3 and 33 mm3
– | mouse, PK-59 xenograft | subcutaneous | 30 mg/kg once daily | day 13 | 49.6 mm3 and 52.2 mm3 and 69.6 mm3 and 45.9 mm3 and 67.6 mm3

Series 5
Host: female CD-1 mouse
Medium: plasma
Route: oral
Dose: 20 mg/kg
Structure (SMILES) | AUC(0-t) [ng·h/mL]
Cc1ccc(O)c(C)c1-c1cnc2[nH]c(-c3cnc(N4CCC5(CC4)CC(CN4CCN(c6ccc(NC7CCC(=O)NC7=O)cc6F)CC4)C5)nc3)cc2c1C#N (centres unmarked) | 4000
Cc1ccc(O)c(C)c1-c1cnc2[nH]c(-c3cnc(N4CCC5(CC4)CC(N4CCN(c6ccc(NC7CCC(=O)NC7=O)cc6F)CC4)CO5)nc3)cc2c1C#N (centres unmarked) | 3090
Cc1ccc(O)c(C)c1-c1cnc2[nH]c(-c3cnc(N4CCC(CN5CCN(c6ccc7c(c6F)CN(C6CCC(=O)NC6=O)C7=O)CC5)CC4)nc3)cc2c1C#N (centres unmarked) | 5360
Cc1ccc(O)c(C)c1-c1cnc2[nH]c(-c3cnc(N4CCC(CN5CCN(c6cc7c(cc6F)c(N6CCC(=O)NC6=O)nn7C)CC5)CC4)nc3)cc2c1C#N | 7850

Series 6
SMILES: CN(C1COC1)C(C)(C)/C=C(\C#N)C(=O)N1CCC[C@H]1Cn1nc(-c2ccc(Oc3ccccc3)cc2F)c2c(N)ncnc21
Read-out: kinase activity
target | tested at | inhibition [%]
SRPK3 (Homo sapiens, UniProt Q9UPE1) | 0.1 µM | -1
STK25 (Homo sapiens, UniProt O00506) | 0.1 µM | 6
RET (Homo sapiens, UniProt P07949) | 0.1 µM | 4
SGK3 (Homo sapiens, UniProt Q96BR1) | 0.1 µM | -6
LRRK2 (Homo sapiens, UniProt Q5S007, G2019S) | 0.1 µM | 9
Cyclin-dependent kinase 4, with cyclin D (CDK4, Homo sapiens, UniProt P11802) | 1 µM | 0
PRKG2 (Homo sapiens, UniProt Q13237) | 0.1 µM | 0
BMX (Homo sapiens, UniProt P51813) | 0.1 µM | 94
SGK2 (Homo sapiens, UniProt Q9HBY8) | 1 µM | 6
ERBB2 (Homo sapiens, UniProt P04626) | 1 µM | 1
PAK6 (Homo sapiens, UniProt Q9NQU5) | 1 µM | -4
DAPK1 (Homo sapiens, UniProt P53355) | 0.1 µM | 4

Series 7
Compound: C[C@@H]1CN(c2ccc(-c3cc(C(=O)NCCOCCOCCOCCOCCNC(=O)/C=C/c4[nH]cc(C(=O)N[C@@H](CC(N)=O)c5ccc(F)c(Cl)c5)c4-c4ccc(Cl)cc4F)ccc3F)cc2NC(=O)c2c[nH]c(=O)cc2C(F)(F)F)C[C@H](C)N1C
Read-out: thermal unfolding
Method: differential scanning fluorimetry
Tested at: 5.5 µM
Direction: higher = more unfolded
WDR5: WD repeat-containing protein 5 (WDR5, Homo sapiens, UniProt P61964)
DCAF1: DDB1- and CUL4-associated factor 1 (DCAF1, Homo sapiens, UniProt Q9Y4B6)
Chain of UniProt Q9Y4B6 (whole entry, looked up): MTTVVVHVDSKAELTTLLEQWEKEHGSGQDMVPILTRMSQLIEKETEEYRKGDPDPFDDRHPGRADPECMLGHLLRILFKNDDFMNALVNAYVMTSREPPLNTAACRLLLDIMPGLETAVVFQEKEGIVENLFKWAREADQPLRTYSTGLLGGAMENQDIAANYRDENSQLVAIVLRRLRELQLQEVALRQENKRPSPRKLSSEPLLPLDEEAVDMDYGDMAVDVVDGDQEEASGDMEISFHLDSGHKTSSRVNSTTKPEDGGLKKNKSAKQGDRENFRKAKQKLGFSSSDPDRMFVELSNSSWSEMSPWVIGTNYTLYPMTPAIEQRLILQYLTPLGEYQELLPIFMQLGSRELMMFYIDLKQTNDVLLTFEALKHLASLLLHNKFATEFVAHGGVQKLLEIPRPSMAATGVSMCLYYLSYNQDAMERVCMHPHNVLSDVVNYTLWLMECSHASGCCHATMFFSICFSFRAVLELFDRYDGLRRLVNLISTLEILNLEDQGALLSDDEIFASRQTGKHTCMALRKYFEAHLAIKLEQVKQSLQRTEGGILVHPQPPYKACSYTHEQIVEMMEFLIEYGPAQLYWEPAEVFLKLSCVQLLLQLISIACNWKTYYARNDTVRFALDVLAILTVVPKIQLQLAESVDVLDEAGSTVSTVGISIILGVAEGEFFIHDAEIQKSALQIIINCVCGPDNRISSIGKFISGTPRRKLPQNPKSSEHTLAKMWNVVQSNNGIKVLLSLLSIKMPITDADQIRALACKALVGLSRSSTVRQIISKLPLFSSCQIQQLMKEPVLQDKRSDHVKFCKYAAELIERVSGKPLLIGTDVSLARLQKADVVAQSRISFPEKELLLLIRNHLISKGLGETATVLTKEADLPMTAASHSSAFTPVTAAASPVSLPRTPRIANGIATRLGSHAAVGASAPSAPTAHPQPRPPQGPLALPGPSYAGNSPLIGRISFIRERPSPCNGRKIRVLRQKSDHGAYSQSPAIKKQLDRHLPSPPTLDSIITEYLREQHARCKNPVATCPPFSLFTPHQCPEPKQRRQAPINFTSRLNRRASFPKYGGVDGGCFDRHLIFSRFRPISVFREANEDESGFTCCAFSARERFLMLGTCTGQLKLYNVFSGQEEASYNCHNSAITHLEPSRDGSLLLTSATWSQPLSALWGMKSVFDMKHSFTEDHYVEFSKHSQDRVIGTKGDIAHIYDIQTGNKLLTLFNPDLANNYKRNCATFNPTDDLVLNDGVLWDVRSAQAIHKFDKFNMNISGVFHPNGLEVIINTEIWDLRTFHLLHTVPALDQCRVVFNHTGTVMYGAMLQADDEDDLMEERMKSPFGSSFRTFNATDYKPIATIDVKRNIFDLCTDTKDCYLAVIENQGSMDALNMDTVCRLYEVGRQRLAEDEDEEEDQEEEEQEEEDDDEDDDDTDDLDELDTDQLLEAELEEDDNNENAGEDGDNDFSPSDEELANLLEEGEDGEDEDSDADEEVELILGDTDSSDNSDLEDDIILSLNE
target | temperature | SYPRO Orange fluorescence [a.u.]
WDR5 | 27.8 °C | 12900
WDR5 | 52.41 °C | 16800
DCAF1 | 40 °C | 11600
DCAF1 | 51.8 °C | 16700
WDR5 | 37.8 °C | 13900
WDR5 | 69.01 °C | 15100
WDR5 | 43 °C | 15000
DCAF1 | 48.2 °C | 14400
DCAF1 | 83.61 °C | 41700
DCAF1 | 55.41 °C | 22400
DCAF1 | 45.4 °C | 13200

Further values, each from its own experiment
SLC6A19: Sodium-dependent neutral amino acid transporter B(0)AT1 (SLC6A19, Homo sapiens, UniProt Q695T7)
Chain of UniProt Q695T7 (whole entry, looked up): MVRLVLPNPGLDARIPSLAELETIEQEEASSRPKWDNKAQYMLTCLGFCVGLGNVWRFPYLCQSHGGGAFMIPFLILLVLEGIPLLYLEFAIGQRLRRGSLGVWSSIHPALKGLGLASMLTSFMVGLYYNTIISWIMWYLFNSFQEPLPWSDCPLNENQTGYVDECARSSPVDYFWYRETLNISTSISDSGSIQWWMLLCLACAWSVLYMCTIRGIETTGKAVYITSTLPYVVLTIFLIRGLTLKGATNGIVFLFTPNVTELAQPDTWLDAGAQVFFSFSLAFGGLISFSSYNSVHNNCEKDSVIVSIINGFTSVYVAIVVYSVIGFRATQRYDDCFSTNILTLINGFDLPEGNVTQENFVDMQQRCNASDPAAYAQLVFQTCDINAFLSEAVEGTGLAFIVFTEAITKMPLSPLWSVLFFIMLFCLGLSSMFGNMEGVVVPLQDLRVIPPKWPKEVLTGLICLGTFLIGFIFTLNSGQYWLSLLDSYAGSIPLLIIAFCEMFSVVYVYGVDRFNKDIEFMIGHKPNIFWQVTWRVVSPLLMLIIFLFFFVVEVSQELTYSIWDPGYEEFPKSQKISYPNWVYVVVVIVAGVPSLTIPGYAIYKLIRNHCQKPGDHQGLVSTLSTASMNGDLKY
MPO: Myeloperoxidase (MPO, Homo sapiens, UniProt P05164)
Chain of UniProt P05164 (whole entry, looked up): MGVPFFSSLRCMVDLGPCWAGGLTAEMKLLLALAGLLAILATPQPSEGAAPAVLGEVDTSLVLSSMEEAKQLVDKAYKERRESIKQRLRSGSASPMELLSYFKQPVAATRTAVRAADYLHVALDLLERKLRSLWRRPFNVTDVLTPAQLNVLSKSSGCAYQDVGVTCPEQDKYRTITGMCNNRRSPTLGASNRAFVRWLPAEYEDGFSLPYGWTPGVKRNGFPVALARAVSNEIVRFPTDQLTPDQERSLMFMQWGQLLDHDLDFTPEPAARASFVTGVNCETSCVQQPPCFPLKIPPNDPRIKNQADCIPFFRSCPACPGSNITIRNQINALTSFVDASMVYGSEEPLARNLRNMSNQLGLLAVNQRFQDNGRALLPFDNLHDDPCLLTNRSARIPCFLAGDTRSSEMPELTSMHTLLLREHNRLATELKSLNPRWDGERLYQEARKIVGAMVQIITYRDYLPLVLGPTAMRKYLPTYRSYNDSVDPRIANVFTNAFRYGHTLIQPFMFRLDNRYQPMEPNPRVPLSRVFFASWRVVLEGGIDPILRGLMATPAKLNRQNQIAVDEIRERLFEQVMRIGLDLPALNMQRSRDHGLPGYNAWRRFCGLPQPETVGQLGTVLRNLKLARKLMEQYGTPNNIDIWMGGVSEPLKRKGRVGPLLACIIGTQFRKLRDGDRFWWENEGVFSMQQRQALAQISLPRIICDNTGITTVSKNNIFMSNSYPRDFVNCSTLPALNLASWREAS
Structure (SMILES) | tested on | assay | test system | setting | scale | endpoint | value
CC(C)NC(=O)COc1ccc(I)cc1 | SLC6A19 | inhibitor, L-[14C]leucine uptake | CHO-BC cells | second repeat | – | pIC50 | 5.38
COc1cc(C(=O)OCCCN2CCCN(CCCOC(=O)c3cc(OC)c(OC)c(OCc4ccc([N+](=O)[O-])cc4)c3)CC2)cc(OC)c1OC | SLC29A1 (Homo sapiens, UniProt Q99808) | inhibitor | human cells | – | – | pIC50 | 6.90
CC(C)NC(=O)COc1ccc(Br)cc1 | SLC6A19 | inhibitor, L-[14C]leucine uptake | CHO-BC cells | second repeat | – | pIC50 | 5.18
NC/C(=C\F)COc1ccc(Cn2c(=S)[nH]c(=O)c3[nH]cnc32)cc1 | MPO | enzyme activity | – | 0.0152 µM | – | inhibition | -20.2% and -3.76%
CNC(=O)[C@@H]1CC[C@@H](n2c(-c3cc(OC)c(OC)c(OC)c3)nc3ccc(C(=O)NCCCN4CCN(c5ccccc5)CC4)cc32)C1 | ACVRL1 (Homo sapiens, UniProt P37023) | binding, TR-FRET | – | – | – | pKd | 8.49
Cc1cc2c([nH]1)c(=O)[nH]c(=S)n2Cc1cccc(OC/C(=C/F)CN)c1 | AOC3 (Homo sapiens, UniProt Q16853) | enzyme activity, inhibitor, fluorescence | – | 1.111 µM | – | inhibition | 98.8% and 98.9%
CCNC(=O)COc1ccc(Br)c(C)c1 | SLC6A19 | inhibitor, FLIPR membrane potential | CHO-BC cells | 0.001 µM | – | normalised transport activity | 0.953
CC(C)(C)NC(=O)c1ccc(OC/C(=C/F)CN)cc1 | MPO | enzyme activity, inhibitor, fluorescence | – | 1.111 µM | – | inhibition | -11.3% and -10% and -8.81%
COCC1CC2C(CCC3(C)C(O)CCC23)c2ccc(O)cc21 (centres unmarked) | PANC-1 | DNA microarray, refers to: GAPDH | – | concentration not given, higher dose arm | baseline: untreated cells | mRNA level ratio | 0.955 and 0.971 and 0.979 and 0.976 and 0.909
CCNC(=O)COc1ccc(I)c(C)c1 | SLC6A19 | inhibitor, FLIPR membrane potential | CHO-BC cells | 0.001 µM | – | normalised transport activity | 0.905
C=C(CN)COc1cccc(Cn2c(=S)[nH]c(=O)c3[nH]cnc32)c1 | MPO | enzyme activity | – | 0.0015 µM | – | inhibition | 9.07% and 2.58%

Excerpt of the above (series 1):
tested on | test system | setting | root length
Arabidopsis thaliana | Col-0, seedlings | 50 µg/mL, with: BCAA | 1.01 cm
Arabidopsis thaliana | Col-0 | 50 µg/mL, seed germination | 0.01 cm
– | Arabidopsis thaliana Col-0 seedlings | 50 µg/mL, with: branched-chain amino acids | 1.04 cm and 0.98 cm and 1.03 cm and 1 cm and 1.02 cm and 0.99 cm and 1.01 cm
Arabidopsis thaliana | Col-0 | 25 µg/mL, seed germination | 0.139 cm
Arabidopsis thaliana | Col-0, seedlings | 50 µg/mL, 1/2 MS medium | 0.01 cm
